Experimental data of several laboratories.
Every numbered part comes from another study and shows a few of its results, in no order.
Sequence of UniProt Q9H2X6 (whole entry, looked up): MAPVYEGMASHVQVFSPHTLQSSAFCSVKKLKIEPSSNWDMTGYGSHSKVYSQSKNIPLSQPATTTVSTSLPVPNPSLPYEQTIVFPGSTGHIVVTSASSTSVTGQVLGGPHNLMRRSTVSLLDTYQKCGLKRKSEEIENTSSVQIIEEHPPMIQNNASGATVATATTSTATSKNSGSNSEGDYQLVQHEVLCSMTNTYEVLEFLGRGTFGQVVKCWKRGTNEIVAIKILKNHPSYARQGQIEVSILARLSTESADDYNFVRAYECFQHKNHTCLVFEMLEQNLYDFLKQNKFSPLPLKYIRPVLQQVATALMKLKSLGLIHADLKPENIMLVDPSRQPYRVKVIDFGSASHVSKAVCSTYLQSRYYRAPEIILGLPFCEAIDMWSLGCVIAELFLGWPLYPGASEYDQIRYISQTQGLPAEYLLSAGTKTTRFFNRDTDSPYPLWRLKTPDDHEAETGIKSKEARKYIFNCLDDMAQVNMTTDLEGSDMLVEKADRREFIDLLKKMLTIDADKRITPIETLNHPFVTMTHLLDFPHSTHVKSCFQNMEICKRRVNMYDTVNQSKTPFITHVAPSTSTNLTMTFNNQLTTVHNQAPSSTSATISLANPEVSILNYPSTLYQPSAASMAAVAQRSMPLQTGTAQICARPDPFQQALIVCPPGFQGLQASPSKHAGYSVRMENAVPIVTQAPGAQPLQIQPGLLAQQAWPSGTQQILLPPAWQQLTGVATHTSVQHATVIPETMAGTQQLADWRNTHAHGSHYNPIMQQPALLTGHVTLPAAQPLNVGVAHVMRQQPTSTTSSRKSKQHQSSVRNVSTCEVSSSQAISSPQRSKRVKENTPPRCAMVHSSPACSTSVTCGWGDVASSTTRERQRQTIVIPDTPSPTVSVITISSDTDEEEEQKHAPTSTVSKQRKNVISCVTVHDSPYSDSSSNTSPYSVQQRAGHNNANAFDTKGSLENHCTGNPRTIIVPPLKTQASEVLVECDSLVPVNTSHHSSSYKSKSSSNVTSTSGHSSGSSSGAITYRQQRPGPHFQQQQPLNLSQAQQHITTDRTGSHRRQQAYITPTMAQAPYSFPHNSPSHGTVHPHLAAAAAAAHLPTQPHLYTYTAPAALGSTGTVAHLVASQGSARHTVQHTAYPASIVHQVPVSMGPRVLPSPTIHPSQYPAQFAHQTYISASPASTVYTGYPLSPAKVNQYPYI
Sequence of UniProt P42336 (whole entry, unmodified, looked up): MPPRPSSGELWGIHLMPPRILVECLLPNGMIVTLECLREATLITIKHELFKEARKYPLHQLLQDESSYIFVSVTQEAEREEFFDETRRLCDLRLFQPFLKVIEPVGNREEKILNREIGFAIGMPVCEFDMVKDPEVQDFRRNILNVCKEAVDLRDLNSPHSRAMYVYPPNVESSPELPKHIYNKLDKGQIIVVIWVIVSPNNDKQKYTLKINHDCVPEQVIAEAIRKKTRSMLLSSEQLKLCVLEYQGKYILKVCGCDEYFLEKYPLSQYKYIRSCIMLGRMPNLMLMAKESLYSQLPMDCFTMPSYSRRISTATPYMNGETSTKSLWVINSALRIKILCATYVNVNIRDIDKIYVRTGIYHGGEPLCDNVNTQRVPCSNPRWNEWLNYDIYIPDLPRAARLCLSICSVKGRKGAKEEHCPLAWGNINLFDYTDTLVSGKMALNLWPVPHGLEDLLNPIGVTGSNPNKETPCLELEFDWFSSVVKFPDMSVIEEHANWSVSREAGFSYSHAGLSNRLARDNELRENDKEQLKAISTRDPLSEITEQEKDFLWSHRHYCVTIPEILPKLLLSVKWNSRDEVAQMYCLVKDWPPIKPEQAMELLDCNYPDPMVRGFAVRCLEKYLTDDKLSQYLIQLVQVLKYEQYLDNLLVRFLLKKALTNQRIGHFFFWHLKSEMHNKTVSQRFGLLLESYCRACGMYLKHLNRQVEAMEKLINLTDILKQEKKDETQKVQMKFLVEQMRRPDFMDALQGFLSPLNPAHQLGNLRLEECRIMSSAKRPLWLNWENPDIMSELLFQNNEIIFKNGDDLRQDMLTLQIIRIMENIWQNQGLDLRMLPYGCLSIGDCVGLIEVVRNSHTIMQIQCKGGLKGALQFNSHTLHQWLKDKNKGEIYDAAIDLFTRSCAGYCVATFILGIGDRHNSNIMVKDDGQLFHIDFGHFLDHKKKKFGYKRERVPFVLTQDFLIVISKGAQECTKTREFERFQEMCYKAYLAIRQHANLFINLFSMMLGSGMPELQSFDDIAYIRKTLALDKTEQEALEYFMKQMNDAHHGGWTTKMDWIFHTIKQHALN
Sequence of UniProt Q13237 (whole entry, looked up): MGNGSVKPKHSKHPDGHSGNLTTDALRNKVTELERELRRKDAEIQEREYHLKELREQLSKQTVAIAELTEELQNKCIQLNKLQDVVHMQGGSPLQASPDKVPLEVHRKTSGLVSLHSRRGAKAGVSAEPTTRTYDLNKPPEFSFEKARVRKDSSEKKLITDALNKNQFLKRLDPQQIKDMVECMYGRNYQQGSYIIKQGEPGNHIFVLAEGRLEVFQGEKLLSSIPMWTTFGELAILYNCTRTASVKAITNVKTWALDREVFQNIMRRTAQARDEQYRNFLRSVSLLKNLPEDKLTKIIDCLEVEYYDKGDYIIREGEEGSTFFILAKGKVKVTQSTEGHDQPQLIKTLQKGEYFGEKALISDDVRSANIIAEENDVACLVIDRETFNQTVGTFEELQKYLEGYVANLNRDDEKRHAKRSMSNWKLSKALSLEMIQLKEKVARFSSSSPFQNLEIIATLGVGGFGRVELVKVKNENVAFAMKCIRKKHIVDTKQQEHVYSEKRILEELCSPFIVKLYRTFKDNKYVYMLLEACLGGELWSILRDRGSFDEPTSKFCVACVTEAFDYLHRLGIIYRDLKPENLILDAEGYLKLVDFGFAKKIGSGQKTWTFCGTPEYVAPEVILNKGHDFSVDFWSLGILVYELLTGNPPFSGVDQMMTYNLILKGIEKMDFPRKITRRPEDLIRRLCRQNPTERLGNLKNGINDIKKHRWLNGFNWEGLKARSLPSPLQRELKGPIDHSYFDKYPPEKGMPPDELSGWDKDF
Sequence of UniProt Q12852 (whole entry, looked up): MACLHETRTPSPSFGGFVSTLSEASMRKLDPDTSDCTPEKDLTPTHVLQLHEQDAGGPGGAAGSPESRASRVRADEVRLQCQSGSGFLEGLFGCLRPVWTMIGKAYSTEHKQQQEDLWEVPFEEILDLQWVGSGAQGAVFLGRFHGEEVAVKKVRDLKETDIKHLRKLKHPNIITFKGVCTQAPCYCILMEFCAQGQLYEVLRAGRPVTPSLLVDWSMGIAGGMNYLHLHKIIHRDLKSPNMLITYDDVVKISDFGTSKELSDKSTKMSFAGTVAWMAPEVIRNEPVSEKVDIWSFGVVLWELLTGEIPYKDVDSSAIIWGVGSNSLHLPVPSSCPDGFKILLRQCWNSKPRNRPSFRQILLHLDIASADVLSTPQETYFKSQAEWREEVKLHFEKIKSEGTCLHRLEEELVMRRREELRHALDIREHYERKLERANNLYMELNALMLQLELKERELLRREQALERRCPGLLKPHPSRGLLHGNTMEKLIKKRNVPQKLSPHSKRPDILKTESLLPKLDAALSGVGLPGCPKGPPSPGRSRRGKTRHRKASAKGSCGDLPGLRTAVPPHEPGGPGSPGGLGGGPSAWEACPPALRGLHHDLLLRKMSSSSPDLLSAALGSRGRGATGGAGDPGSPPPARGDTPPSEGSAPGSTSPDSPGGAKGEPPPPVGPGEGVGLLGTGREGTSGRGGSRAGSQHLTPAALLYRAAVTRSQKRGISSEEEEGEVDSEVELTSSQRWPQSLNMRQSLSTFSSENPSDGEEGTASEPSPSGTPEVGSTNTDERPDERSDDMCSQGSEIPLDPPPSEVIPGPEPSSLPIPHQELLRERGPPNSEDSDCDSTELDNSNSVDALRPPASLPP
Sequence of UniProt Q00535 (whole entry, looked up): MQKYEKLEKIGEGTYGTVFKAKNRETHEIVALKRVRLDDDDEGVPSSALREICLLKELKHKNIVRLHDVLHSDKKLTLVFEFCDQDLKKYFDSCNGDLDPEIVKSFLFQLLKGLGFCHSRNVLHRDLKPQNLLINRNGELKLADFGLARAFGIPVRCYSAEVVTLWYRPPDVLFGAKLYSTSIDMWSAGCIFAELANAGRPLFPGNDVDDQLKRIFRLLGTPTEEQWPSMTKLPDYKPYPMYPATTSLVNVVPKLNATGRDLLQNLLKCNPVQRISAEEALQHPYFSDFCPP
Sequence of UniProt Q9P289 (whole entry, looked up): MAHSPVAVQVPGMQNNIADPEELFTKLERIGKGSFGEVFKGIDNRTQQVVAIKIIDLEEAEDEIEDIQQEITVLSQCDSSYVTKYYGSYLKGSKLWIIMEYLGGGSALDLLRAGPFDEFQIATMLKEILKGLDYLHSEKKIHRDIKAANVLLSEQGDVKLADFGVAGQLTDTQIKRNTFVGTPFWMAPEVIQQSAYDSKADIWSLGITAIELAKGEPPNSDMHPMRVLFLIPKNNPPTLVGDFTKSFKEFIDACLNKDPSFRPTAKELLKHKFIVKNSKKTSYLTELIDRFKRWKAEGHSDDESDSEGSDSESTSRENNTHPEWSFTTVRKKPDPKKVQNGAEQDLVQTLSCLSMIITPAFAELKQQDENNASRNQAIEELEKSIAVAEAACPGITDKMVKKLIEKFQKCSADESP

Set 1
Structure (SMILES): O=C(N[C@H]1CCCCC/C=C\C2C[C@@]2(C(=O)O)NC(=O)[C@@H]2C[C@@H](Oc3ccncc3)CN2C1=O)OC1CCCC1 (stereo partly shown)
Technique: competition with immobilised ligand
Tested at: 1 µM
target | effect on | remaining binding [%]
Epidermal growth factor receptor (EGFR, Homo sapiens, UniProt P00533, del752-759) | cell-free assay | 49
Hepatocyte growth factor receptor (MET, Homo sapiens, UniProt P08581) | cell-free assay | 60
Mitogen-activated protein kinase 13 (MAPK13, Homo sapiens, UniProt O15264) | binding | 96
Receptor-type tyrosine-protein kinase FLT3 (FLT3, Homo sapiens, UniProt P36888, R834Q) | binding | 93
Tyrosine-protein kinase Fer (FER, Homo sapiens, UniProt P16591) | binding | 100
Homeodomain-interacting protein kinase 2 (HIPK2, Homo sapiens, UniProt Q9H2X6) | binding | 100
Tyrosine-protein kinase JAK3, JH1 (JAK3, Homo sapiens, UniProt P52333) | binding | 100
Cyclin-dependent kinase 4, with cyclin D3 (CDK4, Homo sapiens, UniProt P11802) | binding | 89
Calcium/calmodulin-dependent protein kinase type II subunit alpha (CAMK2A, Homo sapiens, UniProt Q9UQM7) | cell-free assay | 95
Interleukin-1 receptor-associated kinase 1 (IRAK1, Homo sapiens, UniProt P51617) | binding | 88
Mitogen-activated protein kinase kinase kinase 12 (MAP3K12, Homo sapiens, UniProt Q12852) | binding | 100
Ribosomal protein S6 kinase alpha-1, C-terminal kinase domain (RPS6KA1, Homo sapiens, UniProt Q15418) | binding | 82
Phosphatidylinositol 4,5-bisphosphate 3-kinase catalytic subunit alpha isoform (PIK3CA, Homo sapiens, UniProt P42336, H1047Y) | binding | 100
Serine/threonine-protein kinase 26 (STK26, Homo sapiens, UniProt Q9P289) | binding | 97
Cyclin-dependent kinase 5 (CDK5, Homo sapiens, UniProt Q00535) | binding | 77
cGMP-dependent protein kinase 2 (PRKG2, Homo sapiens, UniProt Q13237) | binding | 88
Serine/threonine-protein kinase ICK (CILK1, Homo sapiens, UniProt Q9UPZ9) | binding | 85

Set 2
Target: POU domain, class 6, transcription factor 1, POU and homeodomain (POU6F1, Homo sapiens, UniProt Q14863, residues 311-611)
Technique: protein-binding microarray
Form: hairpin DNA
Matrix: in vitro
Tested at: not given
Setting: whole hairpin DNA, median over replicate spots
Baseline: not given
Reading: higher = stronger binding
Shared flanks, not repeated: GAGGCC … GGCCTCACACTCTT
Construct (chain): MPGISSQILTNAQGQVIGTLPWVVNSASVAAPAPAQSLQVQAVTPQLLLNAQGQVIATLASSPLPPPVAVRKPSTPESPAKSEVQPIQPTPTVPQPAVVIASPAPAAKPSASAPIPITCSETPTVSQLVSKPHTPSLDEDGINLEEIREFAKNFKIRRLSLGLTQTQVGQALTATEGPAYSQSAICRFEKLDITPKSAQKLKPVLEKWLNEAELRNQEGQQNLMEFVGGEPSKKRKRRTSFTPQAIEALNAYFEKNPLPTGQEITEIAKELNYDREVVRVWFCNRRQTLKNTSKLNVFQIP
Strand | median fluorescence [a.u.]
CGAATTAGGTGCCTCCTGGCACCTAATTCG (5mC at 7) | 459
ATAATTAGCTGCCTCCTGGCAGCTAATTAT | 2420
ATATTTAGGTGCCTCCTGGCACCTAAATAT | 433
ATAATTATGTGCCTCCTGGCACATAATTAT | 2140
CGAATTAGGTGCCTCCTGGCACCTAATTCG (5mC at 7 35) | 419
ATAATGAGCGGCCTCCTGGCCGCTCATTAT (5mC at 15) | 2640
ATAATTAGCTGCCTCCTGGCAGCTAATTAT (5mC at 15) | 3820
ATAATGACGTGCCTCCTGGCACGTCATTAT (5mC at 28) | 892

Set 3
Target: ATP-dependent RNA helicase DDX3X, helicase core (DDX3X, Homo sapiens, UniProt O00571, residues 132-607)
Sequence of UniProt O00571 (132-607, looked up): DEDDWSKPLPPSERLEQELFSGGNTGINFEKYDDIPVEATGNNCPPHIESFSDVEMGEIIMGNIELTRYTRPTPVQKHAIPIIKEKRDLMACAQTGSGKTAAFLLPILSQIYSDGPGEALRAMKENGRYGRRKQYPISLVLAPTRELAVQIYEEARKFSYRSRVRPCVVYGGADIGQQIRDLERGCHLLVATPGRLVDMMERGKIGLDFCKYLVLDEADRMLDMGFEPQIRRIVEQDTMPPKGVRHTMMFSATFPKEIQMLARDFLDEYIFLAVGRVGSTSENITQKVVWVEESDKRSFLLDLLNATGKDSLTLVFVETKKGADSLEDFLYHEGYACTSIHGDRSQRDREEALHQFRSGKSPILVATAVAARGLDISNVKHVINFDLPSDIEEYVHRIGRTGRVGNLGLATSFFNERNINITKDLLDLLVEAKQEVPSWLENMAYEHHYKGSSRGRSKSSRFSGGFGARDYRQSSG
Technique: RNA Bind-n-Seq
Form: RNA
Matrix: in vitro
Tested at: 90 pmol
Setting: 4-mer, random 30-nt RNA, single round
Together with: 3 µM iPr-DMDA-PatA, 2 mM ADP, 2 mM phosphate
Baseline: input library
Reading: higher = stronger binding
Strand | 4-mer enrichment
CCGU | 0.784 fold
GGAG | 1.19 fold
ACCU | 1.04 fold
CAGG | 0.908 fold
AGAG | 1.55 fold
GUGC | 0.715 fold
AUAG | 1.2 fold
ACCA | 1.31 fold

Set 4
SMILES: CC(C)n1cnc(-c2ccc(F)cc2)c1-c1ncc(C(=O)Nc2ccc(N3CCN(C)CC3)cc2)[nH]1
Technique: phase 2a trial
species | route | dose | setting | patients with TEAE [%]
idiopathic pulmonary fibrosis patients | oral | 60 mg once daily | musculoskeletal disorders, grade 2 | 1
patients with idiopathic pulmonary fibrosis |  | dose not given | free thyroxine decreased, grade 2, all arms | 0
patients with idiopathic pulmonary fibrosis |  | 60 mg once daily | eye swelling, grade 2 | 0
patients with idiopathic pulmonary fibrosis |  | 60 mg once daily | skin papilloma, maximum intensity grade 3 | 0

For quick reference, copied from above (set 3):
Strand | 4-mer enrichment
AUAG | 1.2 fold
GUGC | 0.715 fold
AGAG | 1.55 fold
GGAG | 1.19 fold
CAGG | 0.908 fold
ACCA | 1.31 fold
